{"data": "Measurements pooled from the literature", "note": "Every numbered part comes from another study and shows a few of its results, in no order. Several values in a cell are separate wells, animals, samples, runs or records.", "UniProt Q9UK32, sequence (whole entry, looked up)": "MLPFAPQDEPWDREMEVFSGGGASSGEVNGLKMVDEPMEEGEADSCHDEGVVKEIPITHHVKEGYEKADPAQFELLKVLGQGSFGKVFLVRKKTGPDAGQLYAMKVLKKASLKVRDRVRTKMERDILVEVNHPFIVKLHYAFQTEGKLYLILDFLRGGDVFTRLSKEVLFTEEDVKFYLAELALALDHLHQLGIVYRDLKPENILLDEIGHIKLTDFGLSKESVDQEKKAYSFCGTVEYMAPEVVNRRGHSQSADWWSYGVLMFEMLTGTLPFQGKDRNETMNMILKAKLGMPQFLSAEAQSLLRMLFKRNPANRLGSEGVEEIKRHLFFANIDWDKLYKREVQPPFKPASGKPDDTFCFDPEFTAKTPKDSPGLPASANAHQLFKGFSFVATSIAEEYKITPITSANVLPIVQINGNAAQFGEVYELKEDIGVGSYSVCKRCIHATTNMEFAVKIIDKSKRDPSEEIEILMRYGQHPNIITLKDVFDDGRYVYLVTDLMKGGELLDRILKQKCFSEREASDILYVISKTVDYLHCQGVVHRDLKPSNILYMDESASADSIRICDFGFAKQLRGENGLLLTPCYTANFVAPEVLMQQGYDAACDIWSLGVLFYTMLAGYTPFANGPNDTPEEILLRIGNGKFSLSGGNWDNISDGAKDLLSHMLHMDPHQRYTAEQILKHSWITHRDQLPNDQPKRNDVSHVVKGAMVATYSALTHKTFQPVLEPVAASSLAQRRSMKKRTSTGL", "UniProt Q9BRS2, sequence (whole entry, looked up)": "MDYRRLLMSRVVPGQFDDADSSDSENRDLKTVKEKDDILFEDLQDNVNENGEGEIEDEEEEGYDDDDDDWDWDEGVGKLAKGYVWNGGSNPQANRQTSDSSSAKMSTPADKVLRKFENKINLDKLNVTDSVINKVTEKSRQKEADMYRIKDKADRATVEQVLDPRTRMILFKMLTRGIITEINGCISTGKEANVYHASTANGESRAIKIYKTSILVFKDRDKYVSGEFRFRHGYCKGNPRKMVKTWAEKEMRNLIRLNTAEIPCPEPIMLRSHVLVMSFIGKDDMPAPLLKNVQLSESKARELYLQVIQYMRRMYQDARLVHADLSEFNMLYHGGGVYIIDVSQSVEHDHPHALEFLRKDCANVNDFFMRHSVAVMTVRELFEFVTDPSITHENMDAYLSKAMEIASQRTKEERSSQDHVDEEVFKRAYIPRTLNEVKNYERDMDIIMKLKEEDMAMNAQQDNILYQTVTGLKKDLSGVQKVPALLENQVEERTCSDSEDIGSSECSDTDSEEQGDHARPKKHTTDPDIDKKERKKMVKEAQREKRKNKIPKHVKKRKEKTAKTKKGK"}
{"data": "Block 1", "cell line": "Gaucher fibroblasts L444P/L444P", "method": "4-MUG hydrolysis, cell lysate", "concentration": "0.1 µM", "time": "72 h", "reference": "vehicle"}
{"SMILES": "Ic1ccc(Nc2nc(NCCN3CCOCC3)nc(N3CCSCC3)n2)cc1", "GCase activity [%]": 103}
{"SMILES": "Ic1ccc(Nc2nc(NCCN3CCOCC3)nc(N3CC4CC3CO4)n2)cc1 (centres unmarked)", "GCase activity [%]": 100}
{"SMILES": "Ic1ccc(Nc2nc(NCCN3CCOCC3)nc(N3CCNCC3)n2)cc1", "GCase activity [%]": 99}
{"SMILES": "Ic1ccc(Nc2nc(NCCc3c[nH]c4ccccc34)nc(N3CCOCC3)n2)cc1", "GCase activity [%]": 193}
{"SMILES": "CCOc1ccc2nc(Sc3nc(Nc4ccc(I)cc4)nc(N4CCOCC4)n3)sc2c1", "GCase activity [%]": 101}
{"data": "Block 2", "Compound": "CC[C@@]1(c2cccc(C(F)(F)F)c2)C2=C(Nc3n[nH]cc31)[C@H](F)C(C)(C)CC2=O (single isomer, unassigned)", "concentration": "1 µM"}
{"target": "MAP3K15 (Homo sapiens, UniProt Q6ZN16)", "test": "binding, competition with immobilised ligand", "remaining binding [%]": 91}
{"target": "Tyrosine-protein kinase ABL1, non-phosphorylated (ABL1, Homo sapiens, UniProt P00519, F317L)", "test": "kinase binding, KINOMEscan", "scale": "reference: DMSO control", "remaining binding [%]": 100}
{"target": "PIK3CA (Homo sapiens, UniProt P42336, E542K)", "test": "binding, competition with immobilised ligand", "remaining binding [%]": 46}
{"target": "Ribosomal protein S6 kinase alpha-6, C-terminal kinase domain (RPS6KA6, Homo sapiens, UniProt Q9UK32)", "test": "binding, competition with immobilised ligand", "remaining binding [%]": 91}
{"target": "STK4 (Homo sapiens, UniProt Q13043)", "test": "kinase binding, KINOMEscan", "scale": "reference: DMSO control", "remaining binding [%]": 100}
{"target": "NTRK2 (Homo sapiens, UniProt Q16620)", "test": "kinase binding, KINOMEscan", "scale": "reference: DMSO control", "remaining binding [%]": 89}
{"target": "RIOK1 (Homo sapiens, UniProt Q9BRS2)", "test": "binding, competition with immobilised ligand", "remaining binding [%]": 100}
{"target": "EGFR (Homo sapiens, UniProt P00533, G719C)", "test": "binding, competition with immobilised ligand", "remaining binding [%]": 100}
{"data": "Block 3", "Compound": "Cn1cc(-c2cccc(CN3CCC4(CC3)COc3c4ccc4c3CN([C@H]3CCC(=O)NC3=O)C4=O)c2)cn1", "mode": "degrader", "CSNK1A1": "Casein kinase I isoform alpha (CSNK1A1, Homo sapiens, UniProt P48729)", "CRBN/Zinc finger protein Helios": "CRBN/Zinc finger protein Helios (Homo sapiens, UniProt Q96SW2+Q9UKS7)", "GSPT1": "Eukaryotic peptide chain release factor GTP-binding subunit ERF3A (GSPT1, Homo sapiens, UniProt P15170)", "DNA-binding protein Ikaros": "DNA-binding protein Ikaros (Homo sapiens, UniProt Q13422)", "Zinc finger protein Aiolos": "Zinc finger protein Aiolos (Homo sapiens, UniProt Q9UKT9)", "IKZF4": "Zinc finger protein Eos (IKZF4, Homo sapiens, UniProt Q9H2S9)", "UniProt Q9H2S9, sequence (whole entry, looked up)": "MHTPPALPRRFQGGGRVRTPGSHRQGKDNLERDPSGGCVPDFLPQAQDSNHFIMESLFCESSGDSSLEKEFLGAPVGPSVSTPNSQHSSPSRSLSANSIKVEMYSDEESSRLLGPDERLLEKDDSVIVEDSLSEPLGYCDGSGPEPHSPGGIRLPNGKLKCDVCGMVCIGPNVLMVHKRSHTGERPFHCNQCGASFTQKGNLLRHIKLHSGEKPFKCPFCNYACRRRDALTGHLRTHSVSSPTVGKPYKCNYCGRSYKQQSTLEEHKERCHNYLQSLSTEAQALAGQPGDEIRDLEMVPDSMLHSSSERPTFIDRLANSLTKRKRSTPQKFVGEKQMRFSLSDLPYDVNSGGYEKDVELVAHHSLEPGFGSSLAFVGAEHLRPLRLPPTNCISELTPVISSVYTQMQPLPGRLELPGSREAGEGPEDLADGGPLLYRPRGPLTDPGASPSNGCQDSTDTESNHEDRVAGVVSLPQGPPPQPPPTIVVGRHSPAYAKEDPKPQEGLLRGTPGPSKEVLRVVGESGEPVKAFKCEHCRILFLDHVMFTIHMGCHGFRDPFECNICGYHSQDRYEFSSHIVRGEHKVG", "UniProt Q96SW2, sequence (whole entry, looked up)": "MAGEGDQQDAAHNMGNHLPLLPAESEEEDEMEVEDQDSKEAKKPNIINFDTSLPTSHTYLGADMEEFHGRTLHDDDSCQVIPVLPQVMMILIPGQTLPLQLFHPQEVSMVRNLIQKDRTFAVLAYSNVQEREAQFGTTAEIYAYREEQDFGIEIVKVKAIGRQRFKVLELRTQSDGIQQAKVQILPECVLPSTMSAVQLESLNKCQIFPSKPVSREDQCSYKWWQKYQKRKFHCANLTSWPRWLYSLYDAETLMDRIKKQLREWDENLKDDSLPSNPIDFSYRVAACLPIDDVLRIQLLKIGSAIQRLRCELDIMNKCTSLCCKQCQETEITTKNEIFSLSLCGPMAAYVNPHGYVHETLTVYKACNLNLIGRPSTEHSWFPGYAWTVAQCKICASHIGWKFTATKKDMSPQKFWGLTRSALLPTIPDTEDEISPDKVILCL", "UniProt P48729, sequence (whole entry, looked up)": "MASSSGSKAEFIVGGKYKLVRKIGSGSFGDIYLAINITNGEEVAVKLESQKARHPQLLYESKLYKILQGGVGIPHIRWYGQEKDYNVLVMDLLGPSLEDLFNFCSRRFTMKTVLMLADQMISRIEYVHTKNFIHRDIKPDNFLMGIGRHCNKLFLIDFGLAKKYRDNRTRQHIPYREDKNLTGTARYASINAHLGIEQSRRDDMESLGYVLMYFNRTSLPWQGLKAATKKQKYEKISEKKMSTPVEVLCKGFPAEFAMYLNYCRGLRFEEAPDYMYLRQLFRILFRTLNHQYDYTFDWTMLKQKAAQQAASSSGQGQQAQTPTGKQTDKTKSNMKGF", "UniProt Q13422, sequence (whole entry, looked up)": "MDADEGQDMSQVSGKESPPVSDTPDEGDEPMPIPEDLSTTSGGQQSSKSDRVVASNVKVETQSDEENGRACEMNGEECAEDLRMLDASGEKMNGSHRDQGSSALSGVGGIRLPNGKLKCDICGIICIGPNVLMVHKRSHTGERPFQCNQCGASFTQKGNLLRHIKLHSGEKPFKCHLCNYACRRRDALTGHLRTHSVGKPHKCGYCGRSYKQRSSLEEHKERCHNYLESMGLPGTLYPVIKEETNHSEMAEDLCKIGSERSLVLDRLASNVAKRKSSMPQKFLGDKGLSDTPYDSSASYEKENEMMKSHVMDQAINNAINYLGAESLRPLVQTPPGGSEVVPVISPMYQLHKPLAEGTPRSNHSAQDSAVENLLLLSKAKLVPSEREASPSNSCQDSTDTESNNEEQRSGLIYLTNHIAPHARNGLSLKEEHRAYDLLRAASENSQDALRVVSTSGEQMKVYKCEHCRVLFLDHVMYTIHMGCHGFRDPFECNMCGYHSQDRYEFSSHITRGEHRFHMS", "UniProt Q9UKT9, sequence (whole entry, looked up)": "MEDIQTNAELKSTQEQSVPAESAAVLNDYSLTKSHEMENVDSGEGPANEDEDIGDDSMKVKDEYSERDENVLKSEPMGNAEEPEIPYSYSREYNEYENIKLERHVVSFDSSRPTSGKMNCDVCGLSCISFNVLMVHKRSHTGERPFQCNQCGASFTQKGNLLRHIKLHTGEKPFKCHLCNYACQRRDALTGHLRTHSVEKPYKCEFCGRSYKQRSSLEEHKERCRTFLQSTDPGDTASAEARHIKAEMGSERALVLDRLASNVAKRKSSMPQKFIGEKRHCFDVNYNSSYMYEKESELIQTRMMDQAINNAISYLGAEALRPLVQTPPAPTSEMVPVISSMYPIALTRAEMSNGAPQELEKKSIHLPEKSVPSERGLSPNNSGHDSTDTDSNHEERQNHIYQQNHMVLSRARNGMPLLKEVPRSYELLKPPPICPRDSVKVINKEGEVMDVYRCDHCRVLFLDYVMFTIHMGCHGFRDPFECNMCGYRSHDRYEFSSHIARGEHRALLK", "UniProt P15170, sequence (whole entry, looked up)": "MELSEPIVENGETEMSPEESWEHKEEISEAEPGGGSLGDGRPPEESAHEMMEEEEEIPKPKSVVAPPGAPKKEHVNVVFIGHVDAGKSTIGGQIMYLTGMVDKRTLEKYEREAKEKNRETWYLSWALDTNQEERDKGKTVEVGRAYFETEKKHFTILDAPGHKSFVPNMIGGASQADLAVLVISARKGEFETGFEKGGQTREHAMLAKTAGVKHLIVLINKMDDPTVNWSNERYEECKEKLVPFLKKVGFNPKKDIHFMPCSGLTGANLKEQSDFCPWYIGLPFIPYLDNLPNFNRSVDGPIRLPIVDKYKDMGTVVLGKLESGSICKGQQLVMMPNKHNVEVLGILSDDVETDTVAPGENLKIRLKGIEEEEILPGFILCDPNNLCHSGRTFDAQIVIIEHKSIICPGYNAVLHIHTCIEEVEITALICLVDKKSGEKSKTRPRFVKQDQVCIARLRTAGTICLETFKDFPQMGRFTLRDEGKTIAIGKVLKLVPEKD", "UniProt Q9UKS7, sequence (whole entry, looked up)": "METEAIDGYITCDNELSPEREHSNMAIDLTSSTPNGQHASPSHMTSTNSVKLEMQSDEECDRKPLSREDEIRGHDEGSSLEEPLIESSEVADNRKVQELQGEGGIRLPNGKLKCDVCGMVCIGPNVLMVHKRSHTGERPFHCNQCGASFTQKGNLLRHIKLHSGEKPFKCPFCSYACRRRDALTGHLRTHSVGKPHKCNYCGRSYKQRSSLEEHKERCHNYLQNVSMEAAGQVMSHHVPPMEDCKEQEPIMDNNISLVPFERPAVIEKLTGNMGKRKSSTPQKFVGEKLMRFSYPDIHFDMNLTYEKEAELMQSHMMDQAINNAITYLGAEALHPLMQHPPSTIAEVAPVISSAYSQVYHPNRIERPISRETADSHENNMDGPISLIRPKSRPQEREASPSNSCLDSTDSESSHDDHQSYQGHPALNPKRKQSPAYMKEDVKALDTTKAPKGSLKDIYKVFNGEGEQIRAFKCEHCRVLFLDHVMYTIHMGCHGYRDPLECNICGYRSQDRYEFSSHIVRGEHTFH"}
{"target": "CSNK1A1", "test": "HiBiT", "system": "HEK293", "setting": "0.1694 nM", "remaining protein": "106% and 97.7%"}
{"target": "CRBN/Zinc finger protein Helios", "test": "flow cytometry", "system": "Jurkat", "setting": "0.1 nM", "remaining protein": "108% and 103%"}
{"target": "GSPT1", "test": "HiBiT", "system": "HEK293", "setting": "1111.11 nM", "remaining protein": "97.2% and 100%"}
{"target": "GSPT1", "test": "HiBiT", "system": "HEK293", "setting": "1.524 nM", "remaining protein": "94.8% and 102%"}
{"target": "CRBN/Zinc finger protein Helios", "test": "flow cytometry", "system": "Jurkat", "setting": "37 nM", "remaining protein": "52.6% and 51.4%"}
{"target": "CRBN/Zinc finger protein Helios", "test": "flow cytometry", "system": "primary human regulatory T cells", "setting": "12.35 nM, 3 h", "remaining protein": "67.1% and 61.4%"}
{"target": "DNA-binding protein Ikaros", "test": "HiBiT", "system": "HEK293", "setting": "0.5081 nM", "remaining protein": "99.1% and 98.2%"}
{"target": "Zinc finger protein Aiolos", "test": "HiBiT", "system": "HEK293", "setting": "0.5081 nM", "remaining protein": "95.7% and 96.4%"}
{"target": "CRBN/Zinc finger protein Helios", "test": "flow cytometry", "system": "primary human regulatory T cells", "setting": "37.04 nM, 3 h", "remaining protein": "51.3% and 36%"}
{"target": "IKZF4", "test": "HiBiT", "system": "HEK293", "setting": "333.3 nM, 3 h", "remaining protein": "119% and 115%"}
{"target": "Zinc finger protein Aiolos", "test": "HiBiT", "system": "HEK293", "setting": "0.1694 nM", "remaining protein": "98.2% and 95.1%"}
{"target": "CRBN/Zinc finger protein Helios", "test": "flow cytometry", "system": "Jurkat", "setting": "333 nM", "remaining protein": "41.1% and 39.5%"}
{"target": "DNA-binding protein Ikaros", "test": "HiBiT", "system": "HEK293", "setting": "370.37 nM", "remaining protein": "91% and 90.4%"}
{"target": "CRBN/Zinc finger protein Helios", "test": "flow cytometry", "system": "Jurkat", "setting": "0.2 nM", "remaining protein": "99.6% and 103%"}
{"target": "IKZF4", "test": "HiBiT", "system": "HEK293", "setting": "0.1524 nM, 3 h", "remaining protein": "97.9% and 108%"}
{"target": "GSPT1", "test": "HiBiT", "system": "HEK293", "setting": "10000 nM", "remaining protein": "101% and 110%"}
{"target": "CSNK1A1", "test": "HiBiT", "system": "HEK293", "setting": "0.5081 nM", "remaining protein": "101% and 98.5%"}
{"target": "Zinc finger protein Aiolos", "test": "HiBiT", "system": "HEK293", "setting": "1111.11 nM", "remaining protein": "87.8% and 91.4%"}
{"target": "IKZF4", "test": "HiBiT", "system": "HEK293", "setting": "12.35 nM, 6 h", "remaining protein": "103% and 98.3%"}
{"target": "CSNK1A1", "test": "HiBiT", "system": "HEK293", "setting": "10000 nM", "remaining protein": "90.2% and 99.2%"}
{"data": "Block 4", "SMILES": "C=CC(=O)N1CCN(c2nc(OC[C@@H]3CCCN3C)nc3c2CCN(c2cccc4cccc(C)c24)C3)C[C@@H]1CC#N", "observed": "binding", "mode": "competitor", "method": "NanoBRET", "cell line": "HEK293", "KRAS G13D": "GTPase KRas (KRAS, Homo sapiens, UniProt P01116, G13D)", "KRAS Q61H": "GTPase KRas (KRAS, Homo sapiens, UniProt P01116, Q61H)", "HRAS": "GTPase HRas (HRAS, Homo sapiens, UniProt P01112)"}
{"target": "KRAS G13D", "setting": "9.14 nM", "normalized BRET": "97.5% and 87.6% and 92.6%"}
{"target": "KRAS G13D", "setting": "247 nM", "normalized BRET": "81.5% and 74.7% and 83.4%"}
{"target": "GTPase KRas (KRAS, Homo sapiens, UniProt P01116, G12D)", "setting": "2.44 nM", "normalized BRET": "114%"}
{"target": "KRAS Q61H", "setting": "20 µM", "normalized BRET": "11.7% and 15.5% and 20.4%"}
{"target": "GTPase KRas (KRAS, Homo sapiens, UniProt P01116, Q61R)", "setting": "6.67 µM", "normalized BRET": "125% and 90.8% and 130%"}
{"target": "HRAS", "setting": "39.1 nM", "normalized BRET": "117%"}
{"target": "HRAS", "setting": "2.5 µM", "normalized BRET": "116%"}
{"target": "KRAS Q61H", "setting": "6.67 µM", "normalized BRET": "16.2% and 20.3% and 24.3%"}
{"data": "Single results of other studies"}
{"SMILES": "Cc1cc(-c2cnc(N)c3c(-c4ccc5scnc5c4)csc23)n(C)n1", "target or system": "L929", "system": "MEM 10% FBS", "setting": "12.5 µM", "measurement": "viability", "value": "35.4% and 48.5% and 40.9% and 33.7% and 46.4%"}
{"SMILES": "CC(C)NC(=O)N1CCC(NC2=Nc3cc(F)ccc3N(CC(F)F)c3ccc(Cl)cc32)C1 (stereo in doubt)", "target or system": "colorectal tumour organoids", "setting": "0.1 µM", "scale": "reference: DMSO", "measurement": "viability", "value": "108%"}
{"SMILES": "C=CCN1C(=O)C(O)(C(=O)O)Oc2cc(F)ccc21 (centres unmarked)", "target or system": "Alopecurus japonicus", "test": "fresh weight", "setting": "150 g ai/ha, pre-emergence treatment", "measurement": "inhibition", "value": "54.4% and 55.9% and 56.2%"}
{"note": "A few entries again (block 1):"}
{"SMILES": "Ic1ccc(Nc2nc(NCCN3CCOCC3)nc(N3CCSCC3)n2)cc1", "GCase activity [%]": 103}
{"SMILES": "Ic1ccc(Nc2nc(NCCN3CCOCC3)nc(N3CC4CC3CO4)n2)cc1 (centres unmarked)", "GCase activity [%]": 100}
{"SMILES": "Ic1ccc(Nc2nc(NCCN3CCOCC3)nc(N3CCNCC3)n2)cc1", "GCase activity [%]": 99}
